Assay results gathered from unrelated publications.
Each numbered part is a random draw from the data of one study; scales do not carry over between parts.

Series 1 — method: protein binding microarray; molecule type: double-stranded DNA, one strand shown; sample: in vitro; concentration: not given; relative to: not given; reading: higher = stronger binding
Target: Histone acetyltransferase KAT6A, winged helix 1, GST fusion (KAT6A, Homo sapiens, UniProt Q92794, residues 1-85)
Setting: 8-mer, flanks averaged, mean of 2 arrays, mostly near background
Target sequence (chain): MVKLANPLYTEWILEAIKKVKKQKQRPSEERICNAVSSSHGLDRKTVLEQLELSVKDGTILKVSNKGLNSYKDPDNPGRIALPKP
| Strand | E-score |
| --- | --- |
| GCATTGAA | -0.0565 |
| GCCTTGGA | -0.134 |
| ATACGAAC | -0.135 |
| GCCCACGC | 0.144 |
| ATGCGCTG | 0.2 |
| AAGGTCTG | -0.0259 |
| GTATTCAC | -0.0902 |
| GGGGTGAC | -0.03 |
| AATTGAGC | -0.141 |
| GCATTGTA | 0.0795 |
| AGAGGCAT | -0.109 |
| AGTCCGTG | 0.153 |
| AATGTATG | 0.0379 |
| CGTTTGAA | 0.026 |
| CAAAACCC | -0.0974 |
| CTTCCACA | -0.288 |
| CGGCGTTA | 0.378 |

Series 2 — method: RNAcompete; molecule type: RNA; sample: in vitro; concentration: 20 nM; setting: 7-mer, probes averaged, single round; relative to: mean of 7-mers; reading: higher = stronger binding
Target: PABPC1L2, full length, GST fusion (mouse, UniProt A0ABA7IW68)
Target sequence (chain): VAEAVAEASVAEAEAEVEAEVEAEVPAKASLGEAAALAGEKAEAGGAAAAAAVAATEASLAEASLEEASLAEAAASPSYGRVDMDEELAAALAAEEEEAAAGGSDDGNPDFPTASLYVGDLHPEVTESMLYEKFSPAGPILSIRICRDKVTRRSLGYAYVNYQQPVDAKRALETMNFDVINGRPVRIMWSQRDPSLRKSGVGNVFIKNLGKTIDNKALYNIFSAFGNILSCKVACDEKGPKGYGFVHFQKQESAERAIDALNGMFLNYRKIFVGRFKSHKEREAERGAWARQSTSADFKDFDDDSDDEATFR
| Strand | 7-mer Z-score |
| --- | --- |
| GUGCCGU | -0.255 |
| UACAAUA | 0.115 |
| AUGCCAC | -0.11 |
| GAUCGGU | -0.179 |
| AGGUUCC | -0.186 |
| UCGGUAC | -0.186 |
| GAUGCAC | -0.224 |
| ACCAUUA | -0.141 |
| UUGCAUC | -0.32 |
| GUAUCUA | -0.18 |
| CGUACAC | -0.199 |
| GAAAACA | 6.01 |
| AAGCUGU | -0.0174 |
| GCCAGCG | -0.211 |
| UACAUAG | -0.146 |
| CCAACUA | -0.182 |
| UGGUAGU | -0.32 |
| CCUUAAG | -0.329 |
| AGGUAAC | 0.0134 |
| UGUCGGU | -0.142 |
| AACGCAC | 0.0986 |
| UAGAGUG | -0.155 |
| CUACAAG | -0.0953 |
| AGCGACG | 0.149 |
| GAUCUAC | -0.224 |

Series 3 — method: RNA Bind-n-Seq; molecule type: RNA; sample: in vitro; concentration: 365 nM; relative to: no-protein control; reading: higher = stronger binding
Target: RNA binding protein fox-1 homolog 2, RRM domain, GST-SBP tag (RBFOX2, Homo sapiens, UniProt O43251-10, residues 100-194)
Setting: natural RNA segment, single round, ends assumed
Residues (chain): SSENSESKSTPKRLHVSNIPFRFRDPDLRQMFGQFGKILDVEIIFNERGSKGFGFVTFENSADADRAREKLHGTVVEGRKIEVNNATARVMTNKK
| Strand | RBNS enrichment (R) |
| --- | --- |
| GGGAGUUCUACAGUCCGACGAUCUGCCAGGAAGCCCUUCUUGCUUUUGAGAGAGGCUGUGACCACCCCCCAUCCUUCUCCCUACACUCCCAGCCAACCUAGUGCCCAAGCAGCUAAACUUGGCUUCCUUCUAAUGGAAUUCUCGGGUGCCAA | 0.688 |
| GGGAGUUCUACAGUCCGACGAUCCAAGAGAUAAGAUGUCUUUUUUUUACAGAAGUGUAAUAGUCACAGUGCCGCUUAUAGGCUGCACGCACCCCUUGCGGAUGUGCUAUCUGUGGGCAUUUCCUCCUCCUGUGUGGAAUUCUCGGGUGCCAA | 0.361 |
| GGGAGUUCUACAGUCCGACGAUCGCUAGGAUUGAUAUAGGAAUCAACCUAUGUGAUUUGCUUUAGGAGAAAUUAAAAGGUAUAUUCUUAAGAUAUAUUAUAUUUUGAUGCUAAUUCUGUUCUGGGGAGCAUCUUGGAAUUCUCGGGUGCCAA | 0.514 |
| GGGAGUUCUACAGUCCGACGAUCAGGCAUGUAGAAUAAGCAUGGAGUCAUAUUGAGGAGGACUCACUUCUUGAAGAUAUGCUUGUUGCUUUACAACAUAUGUAAGCUAUUCUUUAGCAUAAAUGCAUUCAUUCUGGAAUUCUCGGGUGCCAA | 8.47 |
| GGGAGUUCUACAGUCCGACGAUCAUCUGCUCCAAAGAAAUCUAAGGCCGAUGGUCAGUGAGAGGAAGCUGACUAGCCCCUGGAUUCUUCUCCAGACCCCCCUGCUUCAGGAACACCCGCCAGGGCCCACCCCUUGGAAUUCUCGGGUGCCAA | 0.301 |
| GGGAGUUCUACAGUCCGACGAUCUGGAUGGUUGCGUGAGUUUUCGUGUGGCUGAAGAGGCUGCUGCCCUCUUACCUUGCCCUGUUCCCGGUGCCUUCUUGCGAAUGAGCUAGAGUAGUUUAGGGUCCCUGACUUGGAAUUCUCGGGUGCCAA | 1.13 |
| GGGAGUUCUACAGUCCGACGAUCACUUUGACACUGUGAAGCUCUAAGGAUACAAUAGGAAUGAAGACAGAGGAAGAAAAACUAAAGAGUCGUUUGUUCAGAGACCUGACCUUAUAAAGUUGGGGGAGCAGCUGUGGAAUUCUCGGGUGCCAA | 0.706 |
| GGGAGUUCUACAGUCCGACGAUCCAGCGAGCCGGAGGUGGCCUCCCAGCUGGCUCCCCAUUCGCUCUCCACAACUGCAUUCACUAUCACUUCUUGAGAUGGGACAGAUAUCCGUGCGUCAGUGGCUGGCAGAAUGGAAUUCUCGGGUGCCAA | 0.522 |

Series 4 — method: universal PBM; molecule type: double-stranded DNA, one strand shown; sample: in vitro; concentration: not given; reading: higher = stronger binding
Target: Sal-like protein 4, full length isoform B (SALL4, Homo sapiens, UniProt Q9UJQ4-2, residues 1-616)
Setting: 8-mer, flanks averaged, mean of replicates
| Strand | E-score |
| --- | --- |
| ACTGCACT | -0.021 |
| AGTGGGCG | -0.17 |
| CCCCCTAG | -0.175 |
| ACGACACG | -0.0418 |
| GTGATAGA | 0.135 |
| AACGTGTA | 0.211 |
| ACTAGCAT | -0.024 |
| AGTTTTAG | 0.0209 |
| GTCTGTAA | 0.035 |
| GACAAGCC | -0.0996 |
| CTTCACCC | -0.0356 |
| GCGAAGAC | -0.322 |
| GCCACCCA | -0.299 |
| CCAGGCAG | -0.253 |
| CAACCTTA | 0.0869 |
| GTATCCAC | 0.0112 |
| GCACGGGC | -0.297 |
| CTGCACTC | -0.25 |
| GTGTCGCA | -0.101 |
| GGGGTACA | -0.163 |
| AAAATACG | 0.206 |
| TCGTGGCA | -0.00377 |
| AAGCAGGG | -0.111 |
| ACGGACGC | -0.284 |
| CTGCGAGC | -0.169 |

Repeated from above (series 2):
| Strand | 7-mer Z-score |
| --- | --- |
| CCAACUA | -0.182 |
| UCGGUAC | -0.186 |
| GAAAACA | 6.01 |
| GAUCUAC | -0.224 |
| AUGCCAC | -0.11 |
| ACCAUUA | -0.141 |
| AACGCAC | 0.0986 |
| UGUCGGU | -0.142 |
| GAUGCAC | -0.224 |
| UACAAUA | 0.115 |
